Published values gathered from unrelated publications.
Numbers after ± are the reported error.
UCHL1: Ubiquitin carboxyl-terminal hydrolase isozyme L1 (UCHL1, Homo sapiens, UniProt P09936)
UniProt P09936, sequence (whole entry, looked up): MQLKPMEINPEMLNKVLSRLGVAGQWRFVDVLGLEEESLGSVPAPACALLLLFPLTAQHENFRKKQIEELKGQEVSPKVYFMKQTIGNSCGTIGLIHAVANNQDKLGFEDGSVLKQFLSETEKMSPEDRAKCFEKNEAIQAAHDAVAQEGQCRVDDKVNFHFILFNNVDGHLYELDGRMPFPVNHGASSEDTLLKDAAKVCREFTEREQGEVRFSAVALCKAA

Cc1cc2sc(N)nc2c2cccnc12  AUC extrapolated (female BALB/c mice, plasma; i.p., 30 mg/kg, observed): 0.293%
COc1ccc2cc(CCC[18F])ccc2c1  AUC (Balb/c mice, male, plasma; intravenous, dose not given): 412 ± 40 %ID·min/mL
CC(=O)N1c2ccc(C(=O)CCl)cc2CC1C (stereo not shown)  labelling (UCHL1; covalent, intact protein LC-MS; 12.5 µM): 19%
CN(C)C(=O)c1cc2cnc(Nc3ccc(-c4ccc5c(=O)cc(N6CCOCC6)oc5c4)cc3)nc2n1C1CCCC1.Cl  AUC extrapolated fraction (BALB/c mice, plasma; intravenous, 2 mg/kg): 0.1%
CC(C)(C)c1sc2ncnc(Oc3c(F)cccc3OC(F)(F)F)c2c1-c1ccc(Cl)cc1  AUC (wild-type mice, plasma; intravenous, 1 mg/kg): 2.77 µg·h/mL
Nc1ncc(-c2ccncc2)nc1Nc1ccc2[nH]ccc2c1  AUC (C57BL mice, male, plasma; subcutaneous, 10 mg/kg): 4 µM·h
CN1C[C@H](COc2nccc3c(NCc4ccco4)cc(Cl)nc23)OC1=O  AUC (C57BL/6 mice, plasma; oral, 10 mg/kg): 6.76 µM·h
CCOc1ccc(N(C)S(=O)(=O)c2cc(Cl)sc2C(=O)Nc2cc(Cl)cc(C(=O)O)c2)cc1OC  AUC extrapolated fraction (male C57BL/6 mice, plasma; intraperitoneal, 10 mg/kg): 4.8%
CC(=O)N1[C@@H]2CC3C4CC=C5C[C@@H](O)CC[C@]5(C)C4CC[C@]3(C)[C@@]21C(C)=O (stereo partly shown)  labelling (UCHL1; covalent, intact protein LC-MS; 12.5 µM): 15.2%
c1ccc(-c2nc(N3CCC(c4ccccn4)C3)c3ccccc3n2)nc1 (stereo not shown)  AUC (male ICR mice, plasma; intravenous, 0.1 mg/kg, cassette dosing): 0.0449 µg·h/mL

Repeated from above:
COc1ccc2cc(CCC[18F])ccc2c1  AUC (Balb/c mice, male, plasma; intravenous, dose not given): 412 ± 40 %ID·min/mL
